Measurements pooled from the literature.
Each numbered part is a random draw from the data of one study; scales do not carry over between parts. Positions count from the first letter of the parent shown.
Sequence of UniProt O15294 (whole entry, looked up): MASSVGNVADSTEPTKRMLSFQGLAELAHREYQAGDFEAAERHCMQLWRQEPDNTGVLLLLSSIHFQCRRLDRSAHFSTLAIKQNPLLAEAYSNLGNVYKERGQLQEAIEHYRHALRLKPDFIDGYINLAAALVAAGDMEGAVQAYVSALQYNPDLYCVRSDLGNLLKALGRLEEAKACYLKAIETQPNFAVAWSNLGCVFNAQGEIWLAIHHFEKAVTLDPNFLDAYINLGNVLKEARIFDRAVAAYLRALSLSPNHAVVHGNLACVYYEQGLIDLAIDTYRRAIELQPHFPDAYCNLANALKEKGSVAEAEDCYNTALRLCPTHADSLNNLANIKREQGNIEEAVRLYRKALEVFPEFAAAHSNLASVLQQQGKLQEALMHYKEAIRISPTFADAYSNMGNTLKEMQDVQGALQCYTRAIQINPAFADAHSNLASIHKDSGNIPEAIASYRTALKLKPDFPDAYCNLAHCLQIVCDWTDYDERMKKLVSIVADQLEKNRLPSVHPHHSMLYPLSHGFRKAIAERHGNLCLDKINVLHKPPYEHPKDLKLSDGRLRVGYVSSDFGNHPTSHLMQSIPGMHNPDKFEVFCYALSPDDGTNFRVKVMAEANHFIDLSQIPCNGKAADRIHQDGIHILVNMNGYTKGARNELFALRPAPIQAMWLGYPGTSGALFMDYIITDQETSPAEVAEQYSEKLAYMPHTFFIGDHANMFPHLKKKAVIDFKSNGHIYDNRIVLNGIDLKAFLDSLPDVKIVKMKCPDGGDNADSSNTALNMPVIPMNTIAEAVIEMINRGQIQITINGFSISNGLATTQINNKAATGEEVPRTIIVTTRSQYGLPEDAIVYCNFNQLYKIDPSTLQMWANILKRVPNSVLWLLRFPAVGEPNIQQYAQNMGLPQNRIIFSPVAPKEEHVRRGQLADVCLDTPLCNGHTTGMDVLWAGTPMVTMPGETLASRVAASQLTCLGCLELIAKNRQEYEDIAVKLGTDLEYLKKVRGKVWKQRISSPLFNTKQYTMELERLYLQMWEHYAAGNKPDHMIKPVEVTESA

Sample 1 — technique: RNA Bind-n-Seq; molecule type: RNA; matrix: in vitro; concentration: 20 nM; notes: 6-mer, flanks averaged, single round; added: 150 mM KCl; relative to: input library; reading: higher = stronger binding; measurement: 6-mer enrichment (R)
Target: TAR DNA-binding protein 43, full length, His tag (TARDBP, Homo sapiens, UniProt Q13148, residues 1-414)
ACAUGA: 0.673
AUCGUA: 0.6
UAGACG: 0.907
ACUGAU: 0.613
UUUACC: 0.609
UCAGGG: 2.05
CCAUGC: 0.675
GUUCCU: 0.599

Sample 2 — technique: Spec-seq; molecule type: double-stranded DNA, one strand shown; matrix: in vitro; concentration: not given; notes: whole probe, mean of replicates; relative to: not given; reading: lower = stronger binding; measurement: relative binding energy; shared flanks, not repeated: GAGTCGTCTCGTCAGCAC … CCGTAGAGCACTCAGGTC
Target: POU domain, class 5, transcription factor 1, POU domain (Pou5f1, Mus musculus, UniProt P20263, residues 131-289)
Sequence of UniProt P20263 (131-289, looked up): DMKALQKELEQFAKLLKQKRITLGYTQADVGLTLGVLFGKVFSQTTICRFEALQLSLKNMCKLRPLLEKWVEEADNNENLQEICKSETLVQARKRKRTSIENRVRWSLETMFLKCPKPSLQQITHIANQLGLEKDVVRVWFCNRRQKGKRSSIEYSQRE
ATGCAGGC: 0.192 ln ratio
ATGCAAGT: -0.219 ln ratio
ATTCGGAT: 0.27 ln ratio
ATTGGTAT: 0.331 ln ratio
ATGCGGTG: 0.755 ln ratio
CATTTAAT: 0.452 ln ratio
ATGCCCAA: 0.464 ln ratio
ATGCTGTT: 0.663 ln ratio

Other studies, line by line
P1: PafA, mature enzyme, eGFP fusion (Elizabethkingia meningoseptica, UniProt Q9KJX5); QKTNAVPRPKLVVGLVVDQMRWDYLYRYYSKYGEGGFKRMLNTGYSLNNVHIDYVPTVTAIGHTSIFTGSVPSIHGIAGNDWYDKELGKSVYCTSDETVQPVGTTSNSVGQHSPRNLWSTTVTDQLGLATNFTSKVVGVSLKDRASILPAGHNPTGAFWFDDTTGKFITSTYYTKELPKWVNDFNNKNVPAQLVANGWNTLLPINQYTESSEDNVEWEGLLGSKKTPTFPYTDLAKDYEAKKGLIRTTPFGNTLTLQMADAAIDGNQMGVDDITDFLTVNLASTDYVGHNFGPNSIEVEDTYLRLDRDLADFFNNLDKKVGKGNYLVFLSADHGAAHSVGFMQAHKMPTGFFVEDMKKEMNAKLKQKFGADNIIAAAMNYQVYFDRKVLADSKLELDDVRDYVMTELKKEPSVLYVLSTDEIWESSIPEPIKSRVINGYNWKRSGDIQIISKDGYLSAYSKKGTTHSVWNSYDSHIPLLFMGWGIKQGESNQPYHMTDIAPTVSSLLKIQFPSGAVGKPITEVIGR
STRWFHPSHYHAMFH — log2 fold enrichment (UDP-N-acetylglucosamine--peptide N-acetylglucosaminyltransferase 110 kDa subunit (OGT, Homo sapiens, UniProt O15294); phage display binding, phage display panning NGS; peptide; relative to: OGT-panned over input library): 3.32
P1 S460V — phosphate dissociation constant (inorganic phosphate, free oxyanion; microfluidic competitive inhibition; in vitro, cell-free expressed; not given, derived from inhibition constants, unchanged parent 615000 nM; lower = stronger binding): 719 µM
PhoQ, residues 284 288 289 292 302 303 SMMNNA — fold induction (PhoP, residues 12 14 15 18 19 IFFTR (Escherichia coli, UniProt P23836); Sort-seq, item: YFP reporter; E. coli; PhoQ-PhoP variant library, added: 10 µM Mg2+; relative to: high Mg2+ state, higher = stronger signaling): 3.01

Repeated from above (sample 2):
ATGCAAGT: -0.219 ln ratio
ATTCGGAT: 0.27 ln ratio
ATTGGTAT: 0.331 ln ratio
